Experimental data gathered from unrelated publications.
Numbered parts are unrelated; each lists some results of a single study. Positions count from the first letter of the parent shown.

Block 1 — technique: competition protein-binding microarray; form: double-stranded DNA, one strand shown; medium: in vitro; concentration: 2 µM; with: Pho4 competitor, 0.05 µM; reading: higher = stronger binding; measurement: fluorescence intensity; all sequences stand within: … GTCTTGATTCGCTTGACGCTGCTG
Target: Centromere-binding protein 1, full length, His-tagged (CBF1, Saccharomyces cerevisiae, UniProt P17106, residues 1-351)
Chain of UniProt P17106 (whole entry, looked up): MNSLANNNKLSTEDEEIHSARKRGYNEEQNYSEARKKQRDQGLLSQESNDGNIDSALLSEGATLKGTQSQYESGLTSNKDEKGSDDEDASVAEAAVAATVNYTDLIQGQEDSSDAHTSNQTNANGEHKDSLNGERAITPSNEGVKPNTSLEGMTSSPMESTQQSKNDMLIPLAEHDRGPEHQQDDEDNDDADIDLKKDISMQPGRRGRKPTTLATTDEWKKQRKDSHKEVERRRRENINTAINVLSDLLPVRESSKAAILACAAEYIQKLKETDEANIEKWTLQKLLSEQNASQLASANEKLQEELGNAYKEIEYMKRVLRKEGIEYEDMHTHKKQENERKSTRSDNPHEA
Notes: whole 60-bp probe, lowest competitor level
Sequence = GTCTTGTCTCATTGTCACCACACTTTCCCCACTTCA; value = 88.8 a.u.
Sequence = AAATTACTAAGTTGAGTTGTGGGTGACGCCGTATGA; value = 70.9 a.u.
Sequence = CTTCTGTAAATTTGATACGTGGGTGGACGCGCCCCG; value = 76.3 a.u.
Sequence = AATGGAACAGATTAGCACGTGAACGAGAAAGCAACC; value = 1910 a.u.
Sequence = GTCTTGTCTCATTGGCACGTGGGTGTCCCCACTTCA; value = 1030 a.u.
Sequence = AAAGCGGTAATTTGAACAGTGGGTGCAGATATCTAT; value = 80.9 a.u.
Sequence = TCAACTTGGGCAGCACACATGCAAAACATCACCCAA; value = 97.1 a.u.
Sequence = CGTTAAAGGGACCAAAACGTGGGTAAGGGATGCCGC; value = 95.4 a.u.

Block 2 — technique: RNAcompete; form: RNA; medium: in vitro; concentration: 20 nM; notes: 7-mer, probes averaged, single round; relative to: mean of 7-mers; reading: higher = stronger binding; measurement: 7-mer Z-score
Target: PABPC1L2, full length, GST fusion (mouse, UniProt A0ABA7IW68)
Target sequence (chain): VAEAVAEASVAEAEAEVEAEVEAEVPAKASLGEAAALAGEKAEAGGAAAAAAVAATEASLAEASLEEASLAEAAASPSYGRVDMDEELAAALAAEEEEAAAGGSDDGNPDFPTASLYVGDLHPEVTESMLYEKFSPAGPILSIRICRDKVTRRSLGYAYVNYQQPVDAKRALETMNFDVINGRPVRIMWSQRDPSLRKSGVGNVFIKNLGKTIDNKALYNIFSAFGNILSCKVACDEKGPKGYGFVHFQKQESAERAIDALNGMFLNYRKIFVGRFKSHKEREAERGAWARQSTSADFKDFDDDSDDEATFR
Sequence = CGUAUGU; value = -0.306
Sequence = GCAAAAU; value = 1.9
Sequence = UCCAUAG; value = -0.258
Sequence = AUUGGCU; value = -0.0953
Sequence = AUAGUAA; value = 0.0768
Sequence = AUAGAUC; value = 0.00979
Sequence = GGGCCCC; value = -0.443
Sequence = AUAAGCU; value = 0.0551

Block 3 — technique: protein-binding microarray; form: double-stranded DNA, one strand shown; medium: in vitro; concentration: not given; reading: higher = stronger binding; measurement: E-score
Target: Transcriptional repressor CTCF (CTCF, Homo sapiens, UniProt P49711, residues 1-727, full length assumed)
Notes: k-mer, scored over probes, only values ≥0.25
Residues (chain): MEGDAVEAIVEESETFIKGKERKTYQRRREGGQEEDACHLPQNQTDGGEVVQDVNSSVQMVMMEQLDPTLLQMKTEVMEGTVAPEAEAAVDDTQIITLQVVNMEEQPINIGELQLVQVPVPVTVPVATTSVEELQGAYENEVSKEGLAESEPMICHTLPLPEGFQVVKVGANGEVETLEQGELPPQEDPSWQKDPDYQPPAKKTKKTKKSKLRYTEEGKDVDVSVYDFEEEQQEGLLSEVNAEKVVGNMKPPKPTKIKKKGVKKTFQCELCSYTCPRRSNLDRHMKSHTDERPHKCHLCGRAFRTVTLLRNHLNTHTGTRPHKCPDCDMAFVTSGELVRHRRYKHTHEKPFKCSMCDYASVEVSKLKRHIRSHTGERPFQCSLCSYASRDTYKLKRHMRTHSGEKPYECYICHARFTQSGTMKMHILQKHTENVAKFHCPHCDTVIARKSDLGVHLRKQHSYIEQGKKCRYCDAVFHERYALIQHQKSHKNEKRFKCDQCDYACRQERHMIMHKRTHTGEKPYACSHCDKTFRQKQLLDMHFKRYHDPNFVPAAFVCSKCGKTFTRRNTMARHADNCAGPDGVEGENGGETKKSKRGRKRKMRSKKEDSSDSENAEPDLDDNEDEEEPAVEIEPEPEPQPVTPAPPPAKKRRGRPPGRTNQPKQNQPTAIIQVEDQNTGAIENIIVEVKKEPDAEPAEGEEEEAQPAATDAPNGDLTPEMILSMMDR
Sequence = AACATTAT; value = 0.321
Sequence = CGCGGCGC; value = 0.318
Sequence = AAAATTTA; value = 0.259
Sequence = TAATACAA; value = 0.352
Sequence = GTAATTAC; value = 0.295
Sequence = ATTTACCG; value = 0.272
Sequence = AGTGCAAT; value = 0.344
Sequence = AGGGGGAT; value = 0.298

Mixed results
Parent: viral docking peptide; TSVRRALFTGGSD; partner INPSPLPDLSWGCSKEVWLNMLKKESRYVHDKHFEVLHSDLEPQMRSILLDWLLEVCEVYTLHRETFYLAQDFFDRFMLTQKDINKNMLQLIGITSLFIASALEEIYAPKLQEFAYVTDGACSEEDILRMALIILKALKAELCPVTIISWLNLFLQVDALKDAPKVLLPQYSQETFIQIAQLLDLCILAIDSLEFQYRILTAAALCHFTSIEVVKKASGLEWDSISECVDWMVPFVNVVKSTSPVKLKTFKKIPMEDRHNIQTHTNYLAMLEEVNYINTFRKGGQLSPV
Change = TSVRRALATGGSD [F8A]; target = CCNE2, cyclin fold, Cln2 fusion (human); test = yeast growth competition, sequencing; system = yeast; setting = strong parent motif; scale = relative to: not given, higher = stronger binding; measurement = normalised enrichment score; value = 0.364
